Measured values gathered from unrelated publications.
Lines come from different studies, so protocols differ.
Organism: Escherichia coli

| Compound | assay | test system | setting | MIC |
| --- | --- | --- | --- | --- |
| CC[C@H](C)[C@@H]1NC(=O)CNC(=O)[C@H](CCCNC(=N)N)NC(=O)[C@H](Cc2ccc(O)cc2)NC(=O)[C@@H]2CSSC[C@H](NC1=O)C(=O)N[C@@H](Cc1ccc(O)cc1)C(=O)N[C@@H](CCCNC(=N)N)C(=O)N[C@@H](CCCNC(=N)N)C(=O)N[C@H](C(=O)N[C@@H](CCCNC(=N)N)C(N)=O)CSSC[C@H](NC(=O)[C@H](Cc1c[nH]c3ccccc13)NC(=O)[C@@H](N)CCCCN)C(=O)N[C@@H](Cc1ccccc1)C(=O)N[C@@H](CCCNC(=N)N)C(=O)N[C@@H](C(C)C)C(=O)N2 | bacterial growth, broth dilution, OD600 | DH5α, LB medium | 16 h, 37 °C | 3.1 µM |
| CC[C@H](C)[C@H](NC(=O)[C@@H](NC(=O)[C@H](CCCCN)NC(=O)[C@H](CCCCN)NC(=O)[C@@H](NC(=O)[C@H](Cc1c[nH]c2ccccc12)NC(=O)[C@H](CCCCN)NC(=O)[C@H](Cc1c[nH]c2ccccc12)NC(=O)[C@H](CC(C)C)NC(=O)[C@H](CCCCN)NC(=O)[C@H](CCCCN)NC(=O)[C@@H](N)C(C)C)[C@@H](C)CC)C(C)C)C(N)=O |  |  | 24 h, 37 °C, Mueller-Hinton broth, human serum 10% | 64 µM |
| CC[C@H](C)[C@H](NC(=O)[C@@H](CCCNC(=N)N)NC(=O)[C@H](CCCNC(=N)N)NC(=O)[C@H](CCCCN)NC(=O)[C@H](Cc1c[nH]c2ccccc12)NC(=O)[C@H](CCCNC(=N)N)NC(=O)[C@@H]1CCCN1C(=O)[C@H](CCCNC(=N)N)NC(=O)[C@@H]1CCCN1C(=O)[C@H](CC(C)C)NC(=O)[C@H](Cc1ccc(O)cc1)NC(=O)[C@@H]1CCCN1C(=O)[C@@H]1CCCN1C(=O)[C@H](CCCCN)NC(=O)[C@H](CC(=O)O)NC(=O)[C@@H](N)C(C)C)C(=O)N[C@@H](Cc1ccc(O)cc1)C(=O)N[C@@H](CC(N)=O)C(=O)N[C@H](CCCNC(=N)N)C(N)=O | broth microdilution | ATCC 25922 | 18 h, 37 °C, 25% MHB2 | 16 µg/mL |
| CO[C@@H](C(N)=O)[C@H](NC(=O)c1ccc(NC(=O)[C@@H](N)Cc2ccccc2)cc1)C(=O)Nc1ccc(C(=O)Nc2ccc(C(=O)Nc3ccc(C(=O)O)c(O)c3OC(C)C)c(O)c2OC(C)C)cc1 |  | monooxygenase clone | 16 h, 37 °C | 0.063 µg/mL |
| CC(C)C[C@@H](NC(=O)[C@H](NC(=O)[C@@H](CCCCN)NC(=O)[C@@H](CCCCN)NC(=O)[C@@H](CC(C)C)NC(=O)[C@@H](Cc1c[nH]c2ccccc12)NC(=O)[C@@H](CCCCN)NC(=O)[C@@H](Cc1c[nH]c2ccccc12)NC(=O)[C@@H](CC(C)C)NC(=O)[C@@H](CCCCN)NC(=O)[C@@H](CCCCN)NC(=O)[C@H](N)C(C)C)C(C)C)C(N)=O |  |  | 24 h, 37 °C, Mueller-Hinton broth, no additive | 8 µM |
| CC[C@H](C)[C@H](NC(=O)[C@H](CC(C)C)NC(=O)[C@H](CCCNC(=N)N)NC(=O)CNC(=O)CNC(=O)[C@H](CCCCN)NC(=O)[C@H](CCCNC(=N)N)NC(=O)[C@H](CC(C)C)NC(=O)[C@H](CC(C)C)NC(=O)[C@H](CCCNC(=N)N)NC(=O)[C@@H](NC(=O)[C@H](CC(C)C)NC(=O)[C@@H](N)CO)[C@@H](C)O)C(=O)NCC(=O)N[C@@H](Cc1c[nH]c2ccccc12)C(=O)N[C@@H](CCCNC(=N)N)C(=O)N[C@@H](Cc1c[nH]c2ccccc12)C(=O)N[C@@H](CCC(=O)O)C(=O)N[C@@H](CCCCN)C(=O)N[C@H](C(=O)N[C@@H](CCCNC(=N)N)C(=O)N[C@@H](CC(N)=O)C(=O)N[C@@H](Cc1c[nH]c2ccccc12)C(=O)N[C@H](C(=O)N[C@@H](CCCNC(=N)N)C(=O)N[C@@H](CCCNC(=N)N)C(=O)N[C@H](C(=O)N[C@H](C(=O)N[C@@H](CCC(=O)O)C(=O)N[C@@H](CCCCN)C(=O)N[C@@H](CCCNC(=N)N)C(=O)N[C@@H](CCCCN)C(=O)N1CCC[C@H]1C(=O)N[C@@H](CC(N)=O)C(=O)N[C@@H](CCCCN)C(=O)O)[C@@H](C)CC)[C@@H](C)CC)[C@@H](C)CC)[C@@H](C)O | broth microdilution | K88 |  | 0.94 log10 µg/mL |
| C#CCO/N=C(\C(=O)N[C@@H]1C(=O)N(S(=O)(=O)O)[C@H]1C)c1csc(N)n1 | agar dilution | CDC 1001728 NDM-1 |  | 16 µg/mL |
| CC[C@H](C)[C@H](NC(=O)[C@H](C)NC(=O)[C@@H](NC(=O)[C@H](CC(=O)O)NC(=O)[C@H](CCCCN)NC(=O)[C@H](CO)NC(=O)[C@@H](NC(=O)[C@H](CC(N)=O)NC(=O)[C@H](C)NC(=O)[C@@H](NC(=O)[C@H](CCC(=O)O)NC(=O)[C@H](CCCCN)NC(=O)[C@@H](NC(=O)[C@@H](NC(=O)[C@H](Cc1c[nH]cn1)NC(=O)[C@H](CCCCN)NC(=O)[C@@H](NC(=O)[C@H](CCCCN)NC(=O)[C@H](CCCCN)NC(=O)[C@@H](NC(=O)[C@H](CC(C)C)NC(=O)[C@H](CCCCN)NC(=O)[C@H](CC(N)=O)NC(=O)[C@H](Cc1ccccc1)NC(=O)[C@H](CCCNC(=N)N)NC(=O)[C@H](CCCCN)NC(=O)[C@H](CCCNC(=N)N)NC(=O)[C@H](Cc1ccccc1)NC(=O)CN)C(C)C)C(C)C)[C@@H](C)O)[C@@H](C)CC)[C@@H](C)O)C(C)C)C(C)C)C(=O)N[C@H](C(=O)N[C@@H](C)C(=O)NCC(=O)N[C@@H](CO)C(=O)NCC(=O)N[C@H](C(=O)N[C@@H](C)C(=O)N[C@H](C(=O)NCC(=O)N[C@@H](C)C(=O)N[C@@H](C)C(=O)N[C@@H](CCSC)C(N)=O)C(C)C)C(C)C)C(C)C | broth microdilution | RKI 131/03, CAMHB with 10% mouse serum | 150 mM NaCl | 0.5 µg/mL |
| CC[C@H](C)[C@H](NC(=O)[C@@H](CCCNC(=N)N)NC(=O)[C@H](CCCNC(=N)N)NC(=O)[C@@H]1CCCN1C(=O)[C@@H]1CCCN1C(=O)[C@H](CCCNC(=N)N)NC(=O)[C@@H]1CCCN1C(=O)[C@H](CCCNC(=N)N)NC(=O)[C@@H]1CCCN1C(=O)[C@H](Cc1ccccc1)NC(=O)[C@H](Cc1ccc(O)cc1)NC(=O)[C@@H]1CCCN1C(=O)[C@@H]1CCCN1C(=O)[C@H](CCCCN)NC(=O)[C@H](CC(=O)O)NC(=O)[C@@H](N)C(C)C)C(=O)N[C@@H](Cc1ccc(O)cc1)C(=O)N[C@@H](CC(N)=O)C(=O)N[C@H](CCCNC(=N)N)C(N)=O | broth microdilution | MC4100 | 18 h, 37 °C, 25% MHB2 | 32 µg/mL |
| CC(C)Oc1c(NC(=O)c2ccc(NC(=O)C(CC(N)=O)NC(=O)c3cc(F)c(N=Nc4c(F)cccc4F)c(F)c3)cc2)ccc(C(=O)NN=Cc2ccc(C(=O)O)cc2)c1O (stereo not shown) |  | BW25113 | after 1 h irradiation at 365 nm | > 6.4 µg/mL |
| CC[C@H](C)[C@H](NC(=O)[C@@H](CCCNC(=N)N)NC(=O)[C@H](CCCNC(=N)N)NC(=O)[C@@H]1CCCN1C(=O)[C@@H]1CCCN1C(=O)[C@H](CCCNC(=N)N)NC(=O)[C@@H]1CCCN1C(=O)[C@H](CCCNC(=N)N)NC(=O)[C@@H]1CCCN1C(=O)[C@H](CC(C)C)NC(=O)[C@H](Cc1ccc(O)cc1)NC(=O)[C@@H]1CCCN1C(=O)[C@@H]1CCCN1C(=O)[C@H](CCCCN)NC(=O)[C@H](CC(=O)O)NC(=O)[C@@H](N)C(C)C)C(=O)N[C@@H](Cc1ccc(O)c([N+](=O)[O-])c1)C(=O)N[C@@H](CC(N)=O)C(=O)N[C@H](CCCNC(=N)N)C(N)=O | broth microdilution | BW25113 | 18 h, 37 °C, 25% MHB2 | 8 µg/mL |
| CCCCCCCC(=O)N[C@@H](CCN)C(=O)N[C@H](C(=O)N[C@@H](CCN)C(=O)N[C@H]1CCNC(=O)[C@H]([C@@H](C)O)NC(=O)[C@H](CCN)NC(=O)[C@H](CCN)NC(=O)[C@H](Cc2ccccc2)NC(=O)[C@@H](CCCc2ccccc2)NC(=O)[C@H](CCN)NC1=O)[C@@H](C)O | broth microdilution | ATCC 25922, colistin-susceptible |  | 0.25 to 0.5 µg/mL |
| CC(C)C[C@H](NC(=O)[C@H](CCCCN)NC(=O)[C@H](CC(C)C)NC(=O)[C@H](CCCCN)NC(=O)C1CCCC=CCCC(NC(=O)[C@H](CCCCN)NC(=O)[C@H](CC(C)C)NC(=O)[C@H](CCCCN)NC(=O)[C@@H](N)CC(C)C)C(=O)N[C@@H](CCCCN)C(=O)N2CCC[C@@H]2C(=O)NCC(=O)N[C@@H](CCCCN)C(=O)N1)C(N)=O (stereo partly shown) | broth microdilution | ATCC 25922, Mueller-Hinton broth | 18 h, 37 °C | 8 µM |
| CC[C@H](C)[C@H](NC(=O)[C@H](Cc1c[nH]c2ccccc12)NC(=O)c1ccccc1)C(=O)N[C@H](C(=O)N[C@@H](Cc1ccc(O)cc1)C(=O)N[C@@H](CCCCN)C(=O)N[C@@H](Cc1c[nH]c2ccccc12)C(=O)N1CCC[C@@H]1C(=O)N[C@@H](CCCNC(=N)N)C(=O)N[C@@H](CCCCN)C(=O)N[C@H](C(=O)N[C@H](C(=O)N[C@@H](CCCNC(=N)N)C(=O)N[C@@H](Cc1ccc(O)cc1)C(=O)N[C@@H](Cc1c[nH]c2ccccc12)C(=O)N[C@H](C(=O)NCC(=O)N[C@@H](CCCCN)C(=O)N[C@@H](CCCNC(=N)N)C(N)=O)[C@@H](C)O)C(C)C)C(C)C)C(C)C |  | DH5α | 16 h, 37 °C | 100 µM |
| CC[C@H](C)[C@H](NC(=O)[C@@H](CCCNC(=N)N)NC(=O)[C@H](CCCNC(=N)N)NC(=O)[C@H](CC(=O)O)NC(=O)[C@H](Cc1c[nH]c2ccccc12)NC(=O)[C@H](CCCNC(=N)N)NC(=O)[C@@H]1CCCN1C(=O)[C@H](CCCNC(=N)N)NC(=O)[C@@H]1CCCN1C(=O)[C@H](CC(C)C)NC(=O)[C@H](Cc1ccc(O)cc1)NC(=O)[C@@H]1CCCN1C(=O)[C@@H]1CCCN1C(=O)[C@H](CCCCN)NC(=O)[C@H](CC(=O)O)NC(=O)[C@@H](N)C(C)C)C(=O)N[C@@H](Cc1ccc(O)cc1)C(=O)N[C@@H](CC(N)=O)C(=O)N[C@H](CCCNC(=N)N)C(N)=O | broth microdilution | ATCC 25922 | 18 h, 37 °C, 25% MHB2 | 32 µg/mL |
| CSCC[C@H](NC=O)C(=O)N[C@@H](CCCNC(=N)N)C(=O)N[C@H](C(=O)NCC(=O)N[C@@H](CC(N)=O)C(=O)N[C@@H](C)C(=O)N[C@@H](CC(N)=O)C(=O)NCC(=O)N1CCN(c2cc3c(cc2F)c(=O)c(C(=O)O)cn3C2CC2)CC1)[C@@H](C)O | broth dilution | K12 MG1655 efflux knock-out |  | 0.78 µM |
| C#CCO/N=C(\C(=O)N[C@@H]1C(=O)N(OS(=O)(=O)O)C1(C)C)c1csc(N)n1 | agar dilution | CDC 1001728, NDM-1 |  | 4 µg/mL |
| CC(CS)C(=O)N1CCCC1C(=O)O (stereo not shown) |  | NDM-1 producing | compound alone | > 2000 µM |
| CC[C@H](C)[C@H](NC(=O)[C@@H](CCCNC(=N)N)NC(=O)[C@H](CCCNC(=N)N)NC(=O)[C@H](Cc1ccccc1)NC(=O)[C@H](Cc1c[nH]c2ccccc12)NC(=O)[C@H](CCCNC(=N)N)NC(=O)[C@@H]1CCCN1C(=O)[C@H](CCCNC(=N)N)NC(=O)[C@@H]1CCCN1C(=O)[C@H](CC(C)C)NC(=O)[C@H](Cc1ccc(O)cc1)NC(=O)[C@@H]1CCCN1C(=O)[C@@H]1CCCN1C(=O)[C@H](CCCCN)NC(=O)[C@H](CC(=O)O)NC(=O)[C@@H](N)C(C)C)C(=O)N[C@@H](Cc1ccc(O)cc1)C(=O)N[C@@H](CC(N)=O)C(=O)N[C@H](CCCNC(=N)N)C(N)=O | broth microdilution | MC4100 | 18 h, 37 °C, 25% MHB2 | 32 µg/mL |

Excerpt of the above:
| Compound | assay | test system | setting | MIC |
| --- | --- | --- | --- | --- |
| C#CCO/N=C(\C(=O)N[C@@H]1C(=O)N(OS(=O)(=O)O)C1(C)C)c1csc(N)n1 | agar dilution | CDC 1001728, NDM-1 |  | 4 µg/mL |
| CC(C)C[C@H](NC(=O)[C@H](CCCCN)NC(=O)[C@H](CC(C)C)NC(=O)[C@H](CCCCN)NC(=O)C1CCCC=CCCC(NC(=O)[C@H](CCCCN)NC(=O)[C@H](CC(C)C)NC(=O)[C@H](CCCCN)NC(=O)[C@@H](N)CC(C)C)C(=O)N[C@@H](CCCCN)C(=O)N2CCC[C@@H]2C(=O)NCC(=O)N[C@@H](CCCCN)C(=O)N1)C(N)=O (stereo partly shown) | broth microdilution | ATCC 25922, Mueller-Hinton broth | 18 h, 37 °C | 8 µM |
